Assay results from different studies.
Protocols differ between the studies behind these lines. Values joined by “and” are separate records of one study, mostly repeats; a detail may differ. ± gives the spread as reported.

CCCCc1nc(Cl)c(CO)n1Cc1ccc(-c2ccccc2-c2nn[nH]n2)cc1 — log2 fold change (human PBMC; RNA-seq, refers to: CSF3 mRNA; 10 µg/mL, 24 h; reference: untreated control): 4.1
COC(=O)c1cc(C(C)=NNc2nc(-c3ccc4c(c3)OCCCO4)cs2)ccc1O — cells in S phase (T47D; flow cytometry; 20 µM, 72 h): 58.2 ± 2.48%
C[C@H]1[C@@H](O)O[C@@H]2O[C@@]3(C)CC[C@H]4[C@H](C)CC[C@@H]1[C@@]24OO3 — late apoptotic cells (THP-1; annexin V/PI flow cytometry, refers to: annexin V+/PI+; 0.4 µM, 24 h): 1.4%
Cc1cc(Nc2ncc(Cl)c(Nc3ccccc3S(=O)(=O)C(C)C)n2)c(OC(C)C)cc1C1CCNCC1 — log2 fold change (CLB-GE; phosphoproteomics LC-MS/MS, refers to: FAM111B phosphorylation; 200 nM, 60 min; reference: untreated): -1.87
COc1cc2ncnc(Cc3cccc(-c4ccccc4OC)c3)c2cc1OC — inhibition (A549; mitochondrial oxygen consumption, Seahorse XF96; 10 µM): 48%
COc1ccc2c(c1)NC(=O)CN2c1nc(C)nc2ccccc12 — cells in S phase (A549; flow cytometry; 0.003 µM, 24 h): 12.4%
Clc1nc(NCc2ccco2)c2[nH]cnc2n1 — ΔPSI (FD iPSC-derived cardiomyocytes; alternative splicing, RNA-seq, refers to: CYB561D2 exon chr3(+):50352008-50352046; unit not given; reference: DMSO minus compound): -0.319
C=CC(=O)N1CCC(COCC(=O)N2CCN(c3nc(-c4cnc(N)nc4C(F)F)nc(N4CCOC[C@@H]4C)n3)CC2)CC1 — IC50 (SK-OV-3; Akt phosphorylation, inhibitor, in-cell western, refers to: Akt pSer473): 19.5 nM
CC1(C)COc2ccc(F)cc2CN2c3nc4c(cnn4cc3OC[C@H]2C(F)F)C(=O)N1 — Emax (NB1 (ALK amplification, exon 2-3 deletion); cell viability): 82.7%
O=C(O)c1ccc(Nc2ncc3c(n2)-c2ccc(Cl)cc2C(c2c(F)cccc2F)=NC3)cc1 — cell index (iCell Cardiomyocytes (hiPSC-derived); cellular impedance; concentration not given, 24 h; reference: control): 99%
CC(C)NCC(O)c1ccc(O)c(O)c1 (centres unmarked) — sarcomere length (mouse ventricular cardiomyocytes; dose not given, 0.211 s): 1.76 µm
O=C(NC1CCNCC1)c1[nH]ncc1NC(=O)c1c(Cl)cccc1Cl — cell index (iCell Cardiomyocytes (hiPSC-derived); cellular impedance; concentration not given, 24 h; reference: control): 88.6%
CCn1cc(-c2cc(Cn3ccoc3=N)cc3c2CCN([C@@H](C)c2cc(OC)ccn2)C3=O)c(C(F)(F)F)n1 — EC50 (Ramos; cell growth, inhibitor; 120 h): 1170 nM
O=C(O)c1ccc(-c2c[nH]c3ncc(-c4ccccc4)cc23)cc1C1CCCC1 — relative cell number (SK-OV-3; ATP; 1 µM, 4 days, 3D U-bottom low-attachment; reference: untreated): 110%
CC#CC(=O)N1CCC[C@H]1c1nc(-c2ccc(C(=O)Nc3ccccn3)cc2)c2c(N)nccn12 — IC50 (Ramos; calcium flux, FLIPR; 4 h preincubation): 6.6 nM
Cn1cc(Nc2nccc(-c3ccc4c(c3)CN(C3COC3)CC[C@H]4NC(=O)c3cn(C(C)(C)C)nn3)n2)cn1 — number of downregulated genes (human B cells; 100 nM, 64 h, stimulation-downregulated genes, together with: anti-IgM): 0
O=C(O)[C@H](O)[C@@H](O)[C@H](O)[C@H](O)CO — z-scored log2 fold change (binding, equilibrium dialysis LC-MS; 5 µM, thermostabilized A2AR-BRIL construct; reference: no-protein control, direction not given): 0.237
O=C(/C=C/C=C/C=C/C1CCCCC1)NC1=C[C@@](O)(/C=C/C=C/C=C/C(=O)NC2=C(O)CCC2=O)[C@@H]2O[C@@H]2C1=O — GI50 (LUDLU-1; cell growth, CellTiter-Glo; 78 h): > 30000 nM
CCN(CC)CCNC(=O)c1c(C)[nH]c(/C=C2\C(=O)Nc3ccc(F)cc32)c1C — beat rate (iCell Cardiomyocytes (hiPSC-derived); xCELLigence Cardio impedance; concentration not given, 2 h; reference: control): 74.5%
C=CC(=O)N1CCC[C@@H](c2ccc(C(N)=O)c3[nH]ccc23)C1 — IC50 (Ramos; calcium flux, FLIPR; 1 h preincubation): 7.61 nM
CCCN1CCN(c2ccc3nc(-c4ccc5nc(-c6cc(OC)ccc6OC)[nH]c5c4)[nH]c3c2)CC1 — growth percent (CAKI-1; SRB; 10 µM, 48 h): 106%
CN1CCN(c2ccc3nc(-c4c(N)c5c(F)cccc5[nH]c4=O)[nH]c3c2)CC1 — beat rate (iCell Cardiomyocytes (hiPSC-derived); xCELLigence Cardio impedance; concentration not given, 2 h; reference: control): 75.6%
CC(C)C[C@@H](C=O)NC(=O)[C@H](CC(C)C)NC(=O)[C@H](CC(C)C)NC(=O)OCc1ccccc1 — fibulin-3 level (ARPE-19 HiBiT fibulin-3; HiBiT luminescence; 5 µM): -69.5%
Nc1cccc2c1CN(C1CCC(=O)NC1=O)C2=O (centres unmarked) — viability (bone marrow CD138+ myeloma cells; XTT; 3 µM, phenol red-free RPMI): 5%
Cn1c(Nc2ccc(C(F)(F)F)cc2)nc2cc(Oc3ccnc(-c4ncc(C(F)(F)F)[nH]4)c3)ccc21 — ATP level (iCell Cardiomyocytes (hiPSC-derived); CellTiter-Glo; concentration not given, 24 h; reference: control): 96.3%
CC/C(=N\NC(=O)NCc1cccc(O)c1)c1ccc(O)c(C)c1O — log ratio (SK-OV-3; gene expression, microarray, refers to: MMP10; 10 µM, 24 h; reference: DMSO): -4.47
Cn1cc(-c2ccc(-c3cncc(Cl)c3N3CCC4(CCNC4=O)CC3)cc2)cn1 — log2 fold change (COLO 205; gene expression, microarray, refers to: PLA2G2A mRNA; concentration not given, 2 h; reference: untreated cells): -4.85
Cc1ccc(Nc2nccc(N(C)c3ccc4c(C)n(C)nc4c3)n2)cc1S(N)(=O)=O — ATP level (iCell Cardiomyocytes (hiPSC-derived); CellTiter-Glo; concentration not given, 24 h; reference: control): 104%
NC(CCCC(=O)O)C(=O)O (centres unmarked) — z-scored log2 fold change (binding, equilibrium dialysis LC-MS; 5 µM, thermostabilized A2AR-BRIL construct; reference: no-protein control, direction not given): 0.21
COc1ccc2c(Cc3ccc(OC)c(OC)c3)nccc2c1 — inhibition (A549; mitochondrial oxygen consumption, Seahorse XF96; 10 µM): 81%
CCn1c(-c2nonc2N)nc2cncc(CNC3CCNCC3)c21 — relative cell number (SK-OV-3; ATP; 0.01 µM, 4 days, 3D U-bottom low-attachment; reference: untreated): 127%
CS(=O)(=O)CCNCc1ccc(-c2ccc3ncnc(Nc4ccc(OCc5cccc(F)c5)c(Cl)c4)c3c2)o1 — cell index (iCell Cardiomyocytes (hiPSC-derived); cellular impedance; concentration not given, 24 h; reference: control): 102%
CSc1nc(-c2ccc(Cl)cc2)c2c(NC(=O)c3ccccc3)nnc-2[nH]1 — cell growth (NCI-H226; SRB; 10 µM, NCI60 single-dose screen; reference: untreated): 100%
CC/C(=C(\c1ccccc1)c1ccc(OCCN(C)C)cc1)c1ccccc1 — maximum inhibition (MCF7/luciferase, wild type; cell proliferation): 79.4%
CCCCCCNC(=O)n1cc(F)c(=O)[nH]c1=O — ceramide level (SW-403; LC-MS, refers to: Cer(d18:1/16:0); 10 µM): 121 ± 13.7 pmol/mg protein
Nc1ncnc2c1ncn2[C@@H]1O[C@H](CO)[C@@H](O)[C@H]1O — orotate level (activated human T cells; 50 µM, unit not given; reference: DMSO): 9.6 and 8.5 and 12 and 8 and 9.5
Cc1[nH]c(/C=C2\C(=O)Nc3ccc(F)cc32)c(C)c1C(=O)NC[C@H](O)CN1CCOCC1 — beat amplitude (iCell Cardiomyocytes (hiPSC-derived); xCELLigence Cardio impedance; concentration not given, 2 h; reference: control): 107%
C=Cc1c2[n-]c(c1C)/C=c1\[n-]/c(c(C)c1C=C)=C\c1[n-]c(c(CCC(=O)O)c1C)/C=c1\[n-]c(c(C)c1CCC(=O)O)=C2.[Sn+4] — fold change (SH-SY5Y; RNA-seq, refers to: RFTN1 mRNA; 5 µM, 5 h; reference: untreated cells): 1.53
O=c1[nH]nc(OCCCc2ccc(Cl)cc2)c(NCc2cccnc2)c1Br — normalized enrichment score (HEK-293T; RNA-seq GSEA, refers to: HALLMARK_P53_PATHWAY; concentration not given; direction not given): 1.49
COc1cnc2cccc(N3CCc4c(cc(Cn5ccnc5C)cc4-c4cn(C)nc4C(F)(F)F)C3=O)c2c1 — EC50 (AN3-CA; cell growth, inhibitor; 120 h): 10300 nM
COc1cc(N2CCC(N3CCN(C)CC3)CC2)ccc1Nc1ncc(Cl)c(Nc2ccccc2P(C)(C)=O)n1 — Emax (Ba/F3 EML4-ALK variant 1 E1210K; cell viability): 99.8%
c1ccc2[nH]ccc2c1 — mRNA level, LS mean (HCT-8; RNA-seq, refers to: ISL2; concentration not given): 12 counts per million
CCn1cc(-c2cc(Cn3ccnc3)cc3c2CCN([C@H](c2cc(OC)ccn2)C2CC2)C3=O)c(C(F)(F)F)n1 — EC50 (GP2d; cell growth, inhibitor; 120 h): 130 nM
O=C(/C=C/c1cccc(S(=O)(=O)Nc2ccccc2)c1)NO — TNF-α mRNA level (differentiated THP-1; 25 µg/mL; reference: untreated): decreased
